# Assay results collected from several papers.
# Protocols differ between the studies behind these lines. Numbers after ± are the reported error.
Compound,assay,test system,setting,how to read,quantity,result
CCCCCCCCOP(=O)(O)Oc1c2c(c(OP(=O)(O)OCCCCCCCC)c3c1C1CC3c3cc4c(cc31)C1CC4c3ccccc31)C1CC2c2cc3c(cc21)C1CC3c2ccccc21,,liposomes,30 min,,dye leakage,< 50%
CC(=O)[O-].O.O.O.O.[Mn+2].[O-]c1ccc(Br)cc1C=NCCN1CCOCC1,DPPH radical scavenging,,240 µM,,inhibition,53.5%
CCCC[C@H](NC(=O)[C@@H](NC(=O)[C@H](CC(=O)O)NC(=O)[C@H](CCC(N)=O)NC(=O)[C@H](CC(C)C)NC(=O)[C@H](CC(C)C)NC(=O)[C@H](CCCN)NC(=O)[C@H](CCCNC(=N)N)NC(=O)[C@H](C)NC(=O)[C@H](CO)NC(=O)[C@H](CC(C)C)NC(=O)[C@H](CCC(N)=O)NC(=O)[C@H](CC)NC(=O)[C@H](CC(C)C)NC(=O)[C@@H](NC(=O)[C@H](CCCN)NC(=O)[C@H](CCCNC(=N)N)NC(=O)[C@H](Cc1ccc(O)cc1)NC(=O)[C@H](CO)NC(=O)[C@H](CCC(N)=O)NC(=O)[C@@H](NC(=O)[C@H](Cc1ccccc1)NC(=O)[C@@H](NC(=O)[C@H](C)NC(=O)[C@H](CC(=O)O)NC(=O)[C@H](C)NC(=O)[C@H](Cc1ccc(O)cc1)NC)[C@@H](C)CC)[C@@H](C)O)C(C)C)[C@@H](C)CC)C(=O)N[C@@H](CC(=O)O)C(=O)NCCCCNC(=N)N,GH release,"male rat, serum","subcutaneous, dose not given, 15 min",relative to: GHRH(1-29)NH2,relative potency,91.2
C[C@@H](O)[C@H](N)C(=O)N1CCC[C@H]1C(=O)NCC(=O)NCC(=O)O,"diketopiperazine formation, Arrhenius plot, ESI-MS",1-propanol,"70, 80, 90 °C, 0.5% acetic acid",,activation energy,17.7 ± 2.15 kcal/mol
CCCCSc1nnc(-c2ccc(N)cc2)o1,H2O2 scavenging,,,,IC50,40.6 ± 2.2 µM
Cc1cc(O)c(C=O)c2c1C(=O)Oc1c(CO)c(O)c3c(c1O2)C(O)OC3=O (stereo not shown),,"rat, male, streptozotocin-induced diabetes, cauda epididymis","5 mg/kg, 9 weeks",,sperm abnormalities,13.2 ± 1.47%
CCCC[C@H](NC(=O)[C@@H](NC(=O)[C@H](CC(=O)O)NC(=O)[C@H](CCC(N)=O)NC(=O)[C@H](CC(C)C)NC(=O)[C@H](CC(C)C)NC(=O)[C@H](CCCN)NC(=O)[C@H](CCCNC(=N)N)NC(=O)[C@H](C)NC(=O)[C@H](CO)NC(=O)[C@H](CC(C)C)NC(=O)[C@H](CCC(N)=O)NC(=O)[C@H](CC)NC(=O)[C@H](CC(C)C)NC(=O)[C@@H](NC(=O)[C@H](CCCN)NC(=O)[C@H](CCCNC(=N)N)NC(=O)[C@H](Cc1ccc(O)cc1)NC(=O)[C@H](CO)NC(=O)[C@H](CCC(N)=O)NC(=O)[C@@H](NC(=O)[C@H](Cc1ccccc1)NC(=O)[C@@H](NC(=O)[C@H](C)NC(=O)[C@H](CC(=O)O)NC(=O)[C@@H](C)NC(=O)[C@H](Cc1ccc(O)cc1)NC)[C@@H](C)CC)[C@@H](C)O)C(C)C)[C@@H](C)CC)C(=O)N[C@@H](CC(=O)O)C(=O)N[C@@H](CCCNC(=N)N)C(=O)NC,GH release,"rat, male, serum","intravenous, 1 µg/kg, 15 min",relative to: reference GHRH agonist JI-38,relative potency,1.35
COc1ccc2c(c1)c(CC(=O)OCC(=O)c1ccccc1)c(C)n2C(=O)c1ccc(Cl)cc1,hot plate test,BALB/c mice,"100 mg/kg, 120 min",,latency of nociceptive response,16.4 ± 0.56 s
CCCC[C@H](NC(=O)[C@@H](NC(=O)[C@H](CC(=O)O)NC(=O)[C@H](CCC(N)=O)NC(=O)[C@H](CC(C)C)NC(=O)[C@H](CC(C)C)NC(=O)[C@H](CCCN)NC(=O)[C@H](CCCNC(=N)N)NC(=O)[C@H](C)NC(=O)[C@H](CO)NC(=O)[C@H](CC(C)C)NC(=O)[C@H](CCC(N)=O)NC(=O)[C@H](CC)NC(=O)[C@H](CC(C)C)NC(=O)[C@@H](NC(=O)[C@H](CCCN)NC(=O)[C@H](CCCNC(=N)N)NC(=O)[C@H](Cc1ccc(O)cc1)NC(=O)[C@H](CO)NC(=O)[C@H](CCC(N)=O)NC(=O)[C@@H](NC(=O)[C@H](Cc1ccccc1)NC(=O)[C@@H](NC(=O)[C@H](C)NC(=O)[C@H](CC(=O)O)NC(=O)[C@@H](C)NC(=O)[C@H](Cc1ccc(O)cc1)NC)[C@@H](C)CC)[C@@H](C)O)C(C)C)[C@@H](C)CC)C(=O)N[C@@H](CC(=O)O)C(=O)N[C@@H](CCCNC(=N)N)C(=O)NCC,GH release,"male rat, serum","subcutaneous, dose not given, 15 min",relative to: GHRH(1-29)NH2,relative potency,72.6
C=C(c1ncc(C(=O)O)cn1)c1cc2c(cc1C)C(C)(C)CCC2(C)C,"RNA sequencing, refers to: Cyp26b1 mRNA","rat, brain","dose not given, 24 h, single dose",relative to: vehicle,log2 fold change,-0.28
